Measurements from different studies.
Lines come from different studies, so protocols differ. “And” joins repeats or separate records; there may be more than shown. ± gives the spread as reported.

| SMILES | assay | system | conditions | tissue uptake |
| --- | --- | --- | --- | --- |
| COc1ccc(Nc2nc(Nc3ccc(OCCOCC[18F])cc3)ncc2Br)cc1 |  | ICR mouse, S180 sarcoma-bearing, blood | intravenous, 370 kBq in 100 µL, 30 min | 3.08 ± 0.26 %ID/g |
| CN(Cc1ccccc1)C(=O)CN1CCN(CC(=O)[O-])CCN(Cc2cccc(C(=O)[O-])n2)CC1.[177Lu+3] |  | BALB/c mouse, large intestine | intravenous, 1 h | 0.22 ± 0.03 %ID/g |
| COc1ccc(Nc2nc(Nc3ccc(OCCOCCOCC[18F])cc3)ncc2Br)cc1 |  | ICR mouse, S180 sarcoma-bearing, blood | intravenous, 370 kBq in 100 µL, 15 min | 4.19 ± 0.33 %ID/g |
| COc1cccc(OC)c1-c1cc(C(=O)NC2(C(=O)O)C3CC4CC(C3)CC2C4)nn1-c1ccc(C(=O)N(C)CCOCCOCCN(C)C(=O)[C@H](CCCCNC(=O)[C@H](CC(C)C)NC(=O)C2OC2C(=O)O)NC(=O)CN2CCN(CC(=O)[O-])CCN(CC(=O)[O-])CCN(CC(=O)[O-])CC2)cc1C(C)C.[177Lu+3] (mixture of isomers) |  | mouse, HT-29 xenograft, spleen | 168 h post injection | 0.59 %ID/g |
| O=C([O-])CN1CCN(CC(=O)[O-])CCN(CC(=O)NCC2CCC(C(=O)NC(Cc3ccc4ccccc4c3)C(=O)NCCCCC(NC(=O)NC(CCC(=O)O)C(=O)O)C(=O)O)CC2)CCN(CC(=O)[O-])CC1.[68Ga+3] (stereo not shown) | PET/CT | mouse 22Rv1 xenograft, salivary gland | 1 h | 0.47 ± 0.24 %ID/g |
| COc1cccc(OC)c1-c1cc(C(=O)NC2(C(=O)O)C3CC4CC(C3)CC2C4)nn1-c1ccc(C(=O)N(C)CCCN(C)CCCN(C)C(=O)[C@H](CCCCNC(=O)[C@H](CC(C)C)NC(=O)C2OC2C(=O)O)NC(=O)CN2CCN(CC(=O)[O-])CCN(CC(=O)[O-])CCN(CC(=O)[O-])CC2)cc1C(C)C.[177Lu+3] (mixture of isomers) |  | mouse, HT-29 xenograft, liver | 24 h post injection | 1.9 %ID/g |
| COc1ccc2c(c1)C(C)(C)C(/C=C/C1=C(Oc3ccc(C(=O)NCCCCOc4cc(CN(Cc5ccccn5)Cc5ccccn5)cc(CN(Cc5ccccn5)Cc5ccccn5)c4)cc3)C(=C/C=C3/N(CCCCS(=O)(=O)[O-])c4ccc(OC)cc4C3(C)C)CCC1)=[N+]2CCCCS(=O)(=O)[O-].O=[N+]([O-])[O-].O=[N+]([O-])[O-].[99Tc+].[C-]#[O+].[C-]#[O+].[C-]#[O+].[Zn+2] |  | BALB/c mouse, Staphylococcus aureus myositis, liver | 12 h | 6.88 %ID/g and 20.1 %ID/g and 30.5 %ID/g and 26.8 %ID/g |
| Cc1n[nH]c(C)c1CCCOc1cc(C(=O)NCCCCC(NC(=O)CN2CCN(CC(=O)[O-])CCN(CC(=O)[O-])CCN(CC(=O)[O-])CC2)C(=O)NCC2CCC(C(=O)NC(Cc3ccc4ccccc4c3)C(=O)NCCCCC(NC(=O)NC(CCC(=O)O)C(=O)O)C(=O)O)CC2)ccc1F.[68Ga+3] (stereo not shown) | PET/CT | mouse 22Rv1 xenograft, kidney | 1 h | 29.5 ± 6.32 %ID/g |
| CC[C@H](C)[C@H](NC(=O)C[C@H](NC(=O)CN1CCN2CCN(CC1)CC(=O)[O][Al]([18F])[O]C(=O)C2)C(=O)O)C(=O)N[C@H]1CCc2cccc3c2N(C1=O)[C@H](C(=O)NCc1cn[nH]n1)C3 |  | C57BL/6J mouse, MC-38 tumour, bone | 30 min post injection, PBS treated | 0.58 ± 0.15 %ID/g |
| CN(Cc1ccccc1)C(=O)CN1CCN(CC(=O)[O-])CCN(CC(=O)[O-])CC1.[18F-].[Sc+3] |  | BALB/c mouse, small intestine | intravenous, 1 h | 7.09 ± 5.9 %ID/g |
| N#C[C@@H]1CC(F)(F)CN1C(=O)CNC(=O)c1ccnc2c(NC(=O)CCOCCOCCOCCOCCOCCOCCNC(=O)[C@H](CCCCNC(=O)CN3CCN(CC(=O)[O-])CCN(CC(=O)[O-])CCN(CC(=O)[O-])CC3)NC(=O)CCCc3ccc(I)cc3)cccc12.[177Lu+3] |  | mouse, U-87 MG tumour xenograft, brain | 24 h | 0.01 %ID/g |
| O=C(O)CCCOc1ccc([18F])cc1-c1cc(-c2ccccc2C(F)(F)F)n(-c2ccccc2)n1 |  | mouse, bladder | intravenous, dose not given, 180 min | 0.1 ± 0.14 %ID/g |
| O=C([O-])CN1CCN(CC(=O)[O-])CCN(Cc2cccc(C(=O)[O-])n2)CC1.[177Lu+3] |  | BALB/c mouse, small intestine | intravenous, 1 h | 0.49 ± 0.3 %ID/g |

Repeated from above:
| SMILES | assay | system | conditions | tissue uptake |
| --- | --- | --- | --- | --- |
| CC[C@H](C)[C@H](NC(=O)C[C@H](NC(=O)CN1CCN2CCN(CC1)CC(=O)[O][Al]([18F])[O]C(=O)C2)C(=O)O)C(=O)N[C@H]1CCc2cccc3c2N(C1=O)[C@H](C(=O)NCc1cn[nH]n1)C3 |  | C57BL/6J mouse, MC-38 tumour, bone | 30 min post injection, PBS treated | 0.58 ± 0.15 %ID/g |
